Measurements from different studies.
Parts stem from different laboratories: compare values within a part only. Positions count from the first letter of the parent shown.

Sample 1
Target: UDP-N-acetylglucosamine--peptide N-acetylglucosaminyltransferase 110 kDa subunit (OGT, Homo sapiens, UniProt O15294)
Read-out: binding
Method: phage display NGS
Form: peptide
Concentration: concentration not given
Reference: input library
Residues (O15294 1-1046): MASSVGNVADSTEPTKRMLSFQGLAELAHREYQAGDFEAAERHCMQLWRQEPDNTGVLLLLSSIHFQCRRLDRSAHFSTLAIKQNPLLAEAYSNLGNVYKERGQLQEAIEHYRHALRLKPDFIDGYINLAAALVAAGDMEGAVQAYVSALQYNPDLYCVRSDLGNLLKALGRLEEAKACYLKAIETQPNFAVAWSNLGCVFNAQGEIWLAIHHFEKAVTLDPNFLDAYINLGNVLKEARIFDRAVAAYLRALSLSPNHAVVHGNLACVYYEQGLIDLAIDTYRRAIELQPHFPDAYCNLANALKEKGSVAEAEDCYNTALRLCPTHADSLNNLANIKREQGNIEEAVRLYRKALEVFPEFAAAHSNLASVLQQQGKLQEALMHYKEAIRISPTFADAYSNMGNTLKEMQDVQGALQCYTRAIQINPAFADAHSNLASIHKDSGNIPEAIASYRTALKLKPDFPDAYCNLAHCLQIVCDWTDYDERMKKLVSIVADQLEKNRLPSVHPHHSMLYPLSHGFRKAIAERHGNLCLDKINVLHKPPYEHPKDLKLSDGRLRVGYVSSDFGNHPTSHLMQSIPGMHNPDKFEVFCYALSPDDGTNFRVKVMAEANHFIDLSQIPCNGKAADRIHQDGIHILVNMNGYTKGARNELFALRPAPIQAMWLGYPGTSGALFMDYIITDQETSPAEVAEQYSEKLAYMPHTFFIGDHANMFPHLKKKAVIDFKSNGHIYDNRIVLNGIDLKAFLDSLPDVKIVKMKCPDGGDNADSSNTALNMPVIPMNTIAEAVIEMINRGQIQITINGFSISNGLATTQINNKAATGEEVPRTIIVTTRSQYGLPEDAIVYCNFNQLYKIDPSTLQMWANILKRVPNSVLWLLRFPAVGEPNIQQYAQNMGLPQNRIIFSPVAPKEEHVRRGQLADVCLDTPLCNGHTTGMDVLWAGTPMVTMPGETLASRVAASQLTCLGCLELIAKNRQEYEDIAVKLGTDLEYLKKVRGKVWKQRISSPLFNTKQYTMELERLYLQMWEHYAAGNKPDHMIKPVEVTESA
Sequence	enrichment fold change
SMNLRHHDHNVHPRV	6.47
TFRTHHFHHDLSQF	9.8
HTYHWANVHDDPQAR	2.6
AQQFFPLYQMNFKAK	2.01
QPIHSHAIWPHGTHH	9.17
HLYTFQHHRSEWLGR	2.58
FPHHPQDHMRLNVFT	3.11
TIEHHHRTHTPMPSY	8.02
HSLMHKGHKHHVGDI	4.09
QRVQHSHHYMHQIAE	10.1
HIHLHAQENPKVPYH	4.6
IHAGLEPKYQISYTY	3.23
HFNQHHHFFAVPPYD	6.43
ATRETEPAYQIVYTK	3.24
HLQYPDHPIHEHTHI	12.6
HAGTIQPVYQISYVK	5.58
AHAIHPDLHQYHSHQ	3.03
GQLMMTHHPQWRQV	2.1

Sample 2
Variant: S150A
Target: ABI1, truncated, D143A, DHFR fusion (Arabidopsis thaliana)
Method: DHFR PCA, deep sequencing
Medium: yeast
Notes: methotrexate growth selection, single substitutions
Reference: wild-type fitted maximum
Direction: higher = stronger binding
Starting sequence: PYL1, truncated, DHFR fusion (Arabidopsis thaliana); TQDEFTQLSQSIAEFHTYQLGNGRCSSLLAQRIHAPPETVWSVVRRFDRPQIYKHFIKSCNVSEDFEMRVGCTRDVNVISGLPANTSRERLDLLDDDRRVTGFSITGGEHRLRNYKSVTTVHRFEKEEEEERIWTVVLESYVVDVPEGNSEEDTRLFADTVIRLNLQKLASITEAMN; partner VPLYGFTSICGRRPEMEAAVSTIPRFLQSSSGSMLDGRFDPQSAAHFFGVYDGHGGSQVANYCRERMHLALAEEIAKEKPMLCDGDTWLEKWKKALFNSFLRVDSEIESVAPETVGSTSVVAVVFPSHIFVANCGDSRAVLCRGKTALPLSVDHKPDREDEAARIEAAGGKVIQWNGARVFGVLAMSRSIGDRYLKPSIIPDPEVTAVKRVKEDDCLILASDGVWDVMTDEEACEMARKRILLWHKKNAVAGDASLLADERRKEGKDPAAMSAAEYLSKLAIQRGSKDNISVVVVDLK
conditions	relative binding score [%]
with: (+)-ABA 0.032 µM	9.81
with: (+)-ABA 200 µM	74.8
with: (+)-ABA 2500 µM	89.6
with: (+)-ABA 1.4 µM	16.6
with: (+)-ABA 4.8 µM	9.02
with: (+)-ABA 17 µM	41

Sample 3
Target: CCNB3, cyclin fold, Cln2 fusion (human)
Method: yeast growth competition, sequencing
Medium: yeast
Notes: strong parent motif
Reference: not given
Direction: higher = stronger binding
Starting sequence: viral docking peptide; CKVKRKLFGSENI; partner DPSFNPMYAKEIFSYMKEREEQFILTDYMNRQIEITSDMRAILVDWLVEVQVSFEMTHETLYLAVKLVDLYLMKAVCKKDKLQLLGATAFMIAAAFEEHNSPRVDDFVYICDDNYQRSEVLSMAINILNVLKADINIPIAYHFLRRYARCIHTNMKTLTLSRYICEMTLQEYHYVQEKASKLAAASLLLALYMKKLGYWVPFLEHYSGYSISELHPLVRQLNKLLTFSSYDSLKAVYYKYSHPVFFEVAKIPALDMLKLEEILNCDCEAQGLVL
Variant	normalised enrichment score
L7A	0.399
R5A	0.587
C1A	1.14
R5A L7A	0.213

Sample 4
Target: tungstate, free oxyanion
Method: microfluidic competitive inhibition
Medium: in vitro, cell-free expressed
Concentration: not given
Notes: derived from inhibition constants, unchanged parent 2230 nM
Direction: lower = stronger binding
Starting sequence: PafA, mature enzyme, eGFP fusion (Elizabethkingia meningoseptica, UniProt Q9KJX5); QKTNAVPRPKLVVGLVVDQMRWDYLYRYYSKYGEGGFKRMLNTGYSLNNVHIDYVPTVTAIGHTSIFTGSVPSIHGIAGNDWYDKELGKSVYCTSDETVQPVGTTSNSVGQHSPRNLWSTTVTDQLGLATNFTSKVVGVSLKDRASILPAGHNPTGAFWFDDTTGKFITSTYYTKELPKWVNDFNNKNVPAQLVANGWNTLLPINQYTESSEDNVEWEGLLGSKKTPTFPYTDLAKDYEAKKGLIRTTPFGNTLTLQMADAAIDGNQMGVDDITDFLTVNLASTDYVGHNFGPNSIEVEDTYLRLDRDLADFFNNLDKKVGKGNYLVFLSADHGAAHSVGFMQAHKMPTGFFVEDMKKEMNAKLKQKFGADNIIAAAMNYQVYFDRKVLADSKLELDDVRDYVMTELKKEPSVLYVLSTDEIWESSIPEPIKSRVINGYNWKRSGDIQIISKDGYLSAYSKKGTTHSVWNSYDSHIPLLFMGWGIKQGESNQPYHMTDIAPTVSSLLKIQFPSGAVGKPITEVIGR
Variant	oxyanion analog dissociation constant
N315V	1.98 µM
A344V	1.87 µM
L126V	1.81 µM
H475V	3.2 µM
Q19G	34.6 µM
E489G	1.96 µM
A60V	7.25 µM
L141V	1.86 µM
S426G	2.02 µM
P227G	1.73 µM
V503A	1.78 µM
Y494G	1.42 µM
A515V	2.53 µM
D213G	633 nM
N324G	1.94 µM
A500V	2.37 µM
W441V	1.34 µM
N266G	2.58 µM

For quick reference, copied from above (sample 1):
Sequence	enrichment fold change
HSLMHKGHKHHVGDI	4.09
IHAGLEPKYQISYTY	3.23
